Experimental data gathered from unrelated publications.
Each line is one published result; not all experiments were run side by side. ± gives the spread as reported.

SMILES | host | matrix | route | dose | time | notes | tissue uptake [%ID/g]
CCNc1cc2[o+]c3cc(NCC)c(C)cc3c(-c3ccccc3C(=O)OCCOCC[18F])c2cc1C | rat | liver |  |  | 15 min |  | 1.01 ± 0.14
CN[C@](C)(C[18F])C(=O)O | SCID mouse SK-OV-3 xenograft | brain |  |  | 60 min | post injection | 0.3 ± 0.04
N=C(N)NCc1ccc(C(=O)NCCCC[C@H](NC(=O)N[C@@H](CCC(=O)O)C(=O)O)C(=O)O)cc1[131I] | SCID mouse, PC-3 xenografts | liver |  |  | 1 h |  | 8.27 ± 2.65
O=C(c1ccc(F)cc1)C1CCN(C2Cc3c(cccc3OCC[18F])CC2O)CC1 (single isomer, unassigned; (-)) | Sprague-Dawley rat, male | liver | intravenous | dose not given | 30 min |  | 0.523 ± 0.044
COc1cc2ncnc(Oc3cccc(N[11C](=O)Nc4cc(C(C)(C)C(F)(F)F)on4)c3)c2cc1OC | Balb/c nude mouse, female, A375 melanoma xenograft | lung |  | 6.6 MBq | 30 min |  | 3.45 ± 0.2
N=C(N)NCc1ccc(C(=O)NCCCC[C@H](NC(=O)CCCCCCC(=O)NCCCC[C@H](NC(=O)N[C@@H](CCC(=O)O)C(=O)O)C(=O)O)C(=O)O)cc1[211At] | SCID mouse, PC-3 xenografts | stomach |  |  | 21 h |  | 9.36 ± 2.18
COc1cc(C(=O)NCCOCCOCCOCCNC(=O)c2ccc([18F])nc2)ccc1NC(=O)C1NC(CC(C)(C)C)C(C#N)(c2ccc(Cl)cc2F)C1c1cccc(Cl)c1F (stereo not shown) | athymic male mice, SJSA-1 xenograft | bladder |  |  | 2 h |  | 1.15 ± 0.63
C=Cc1cc(O)cc2nc(-c3ccc(O)c([76Br])c3)oc12 | female C57BL/6 mouse | spleen |  |  | 1 h | high dose | 0.08 ± 0.03
N=C(N)NCc1ccc(C(=O)NCCCC[C@H](NC(=O)N[C@@H](CCC(=O)O)C(=O)O)C(=O)O)cc1[211At] | SCID mouse, PC-3 xenografts | bone |  |  | 14 h |  | 0.14 ± 0.07
O=C(O)CC[C@H](NC(=O)O[C@@H](CCCCNC(=O)c1ccc([18F])cc1)C(=O)O)C(=O)O | mouse, PC-3 PIP/flu xenografts | fat |  |  | 180 min |  | 0.04 ± 0.02

Some of these lines once more:
SMILES | host | matrix | route | dose | time | notes | tissue uptake [%ID/g]
N=C(N)NCc1ccc(C(=O)NCCCC[C@H](NC(=O)CCCCCCC(=O)NCCCC[C@H](NC(=O)N[C@@H](CCC(=O)O)C(=O)O)C(=O)O)C(=O)O)cc1[211At] | SCID mouse, PC-3 xenografts | stomach |  |  | 21 h |  | 9.36 ± 2.18
